# Measurements gathered from unrelated publications.
# Numbered parts are unrelated; each lists some results of a single study. Positions count from the first letter of the parent shown.

# Series 1 — target: CCND3, cyclin fold, Cln2 fusion (human); method: yeast growth competition, sequencing; medium: yeast; setting: weak parent motif; baseline: not given; reading: higher = stronger binding
# Starting sequence: RB1 docking peptide (human); PKPLKKLRFDIEG
Variant,normalised enrichment score
PAPLKKLRFDIEG [K2A],0.159
PKPLKKLRFDIYG [E12Y],0.144
PKPLKKLREDIEG [F9E],0.0437
PKPLAKLRFDIEG [K5A],0.0996
PKPLKKLRFDIVG [E12V],0.0624
PKPNKKLRFDIEG [L4N],0.187
PKPLKKLRFDIEH [G13H],0.127

# Series 2 — target: BATF, bZIP domain (human); method: DHFR protein complementation; medium: yeast; baseline: wild-type JUN-FOS pair; reading: higher = stronger binding
# Setting: single substitutions, most at no-binding floor
# Starting sequence: JUN, bZIP domain (human); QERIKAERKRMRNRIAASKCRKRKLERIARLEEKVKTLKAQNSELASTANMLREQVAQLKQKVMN; partner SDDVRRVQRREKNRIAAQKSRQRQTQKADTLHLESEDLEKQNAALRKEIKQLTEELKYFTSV
Variant,binding fitness
R30F,0.0372 natural log
I28V,0.0339 natural log
A40C,-0.0724 natural log
E54F,-0.198 natural log
L45K,-1.37 natural log
S43E,0.0642 natural log
E33W,-0.239 natural log
S43F,-0.0847 natural log
K39R,0.135 natural log
T48G,-0.637 natural log
R30G,0.103 natural log

# Series 3 — method: protein binding microarray; molecule type: double-stranded DNA, one strand shown; medium: in vitro; concentration: not given; baseline: not given; reading: higher = stronger binding
# Target: Histone acetyltransferase KAT6A, both winged helices, GST fusion (KAT6A, Homo sapiens, UniProt Q92794, residues 1-181)
# Setting: 8-mer, flanks averaged, mean of 2 arrays, mostly near background
# Residues (chain): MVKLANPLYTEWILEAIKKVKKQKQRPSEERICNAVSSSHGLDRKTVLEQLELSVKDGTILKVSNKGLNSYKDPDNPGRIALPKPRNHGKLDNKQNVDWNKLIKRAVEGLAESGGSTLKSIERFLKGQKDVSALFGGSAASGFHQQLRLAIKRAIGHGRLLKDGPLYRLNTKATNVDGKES
Sequence,E-score
GATACTAC,0.0842
CCTAGGGC,-0.117
AGCTGCGG,0.116
ACGTCTCG,0.122
AAATCACT,-0.279
ATCGTTCA,-0.0557
CCCTCAAA,-0.0757
AGTAACCC,0.00419
GAACTCGA,-0.208
TTCAACAA,-0.0608
GAGTAACA,0.0405
AGTGCCCG,0.122
AATTTAAT,0.0446

# Single results of other studies
Molecule,target,assay,system,setting,how to read,measurement,result
"PhoQ, residues 284 288 289 292 302 303 SSYNSA","PhoP, residues 12 14 15 18 19 VQALL (Escherichia coli, UniProt P23836)","Sort-seq, refers to: YFP reporter",E. coli,"PhoQ-PhoP variant library, added: 10 µM Mg2+","baseline: high Mg2+ state, higher = stronger signaling",fold induction,16.2

# Some of these lines once more (series 2):
Variant,binding fitness
I28V,0.0339 natural log
A40C,-0.0724 natural log
